Published values from different studies.
Parts stem from different laboratories: compare values within a part only. Substitutions count along the parent as printed.

Block 1 — method: Sort-seq; refers to: YFP reporter; sample: E. coli; notes: PhoQ-PhoP variant library; with: 10 µM Mg2+; relative to: high Mg2+ state; direction: higher = stronger signaling
Substance: PhoQ, residues 284 288 289 292 302 303 GNNTDL
target	fold induction
PhoP, residues 12 14 15 18 19 NYFRM (Escherichia coli, UniProt P23836)	2.16
PhoP, residues 12 14 15 18 19 QYFSL (Escherichia coli, UniProt P23836)	2.01
PhoP, residues 12 14 15 18 19 TQALL (Escherichia coli, UniProt P23836)	1.47

Block 2 — method: RNA Bind-n-Seq; form: RNA; sample: in vitro; tested at: 200 nM; notes: whole 134-nt RNA, ends assumed; with: 150 mM KCl; relative to: input library; direction: higher = stronger binding
Target: Fragile X messenger ribonucleoprotein 1, C-terminal low-complexity region (Fmr1, Mus musculus, UniProt P35922)
Strand	log2 enrichment
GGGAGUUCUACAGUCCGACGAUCACCAUGCAGGAAAGCAUCUUUGGGAAGUGGGGCAAGGGGGGGAUAGGGAGGGGGGUAACACUUUGGGAACAGGUGGUCCCAGGUCGUUUCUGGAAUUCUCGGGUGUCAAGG	1.1
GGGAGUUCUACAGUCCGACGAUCCACAGACACCACGCACCCACACAGACACAGAGGGAAGGGGUUGGGAUGGGGACAGGGUGCACAGCAGGGCGGGGUAGGACCCCAGCCCCUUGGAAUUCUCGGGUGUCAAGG	1.23
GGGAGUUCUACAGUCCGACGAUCAGUCCUGUGCUACACAUCGUAUGUACCGAAUCGGGUUUUUUUGGGUUUUUGGGAGGGAAAGUAUUAUGUUACGCCGUUCGGAUCUGCACUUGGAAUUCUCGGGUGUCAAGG	0.698
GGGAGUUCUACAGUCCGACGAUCUGCCCAGCUCAUGCUGGACCACCUGAAGAACAGUGCUCCCAGCAAGCGAGAGAUUGCCCAGCUCAAGAACCAGGUAUCCACAGAGAGCACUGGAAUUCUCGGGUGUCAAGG	-0.904
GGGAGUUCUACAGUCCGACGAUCGCAGGAAGUAAAAACAAAUGGAAAUACUUCGGAUAGUGGCAGGGGUGGGGGUUGCUAAGGAAAGGGUGGGAUGGGAGUGGGUAAAGAGUUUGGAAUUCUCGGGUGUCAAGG	0.295
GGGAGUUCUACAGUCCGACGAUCCACAGACAACACGCACCCACACAGACACAGAGGGAAGGGGCUGGGAUGGGGACAGGGUGCACAGCAGGGCGGGGUAGGACCCCAGCCCCUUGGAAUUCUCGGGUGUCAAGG	1.24
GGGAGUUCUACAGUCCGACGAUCUGUGCUACACAUCGUAUGUACCGAAUCGGGGUUUUUGGGGAAAAAAAGGGGAAAAAAAGGGGAAAGUAUUAUGUUACGCCGUUCGGAUCUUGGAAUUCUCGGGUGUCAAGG	0.0983
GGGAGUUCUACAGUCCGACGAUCUCCACCCCUUCUUCCUCCCUUUAACUUAUCCAUUCACUUAAAACAUUACCUGGUCAUCUGGUAAGCCCGGGACAGUAAGCCGAGUGGCUGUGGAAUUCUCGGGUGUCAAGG	0.177
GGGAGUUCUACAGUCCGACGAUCCCUCAAGUCCUGUGCUACACAUCGUAUGUACCGAAUCGGUGGUUUGGUUUGGAAAGUAUUAUGUUACGCCGUUCGGAUCUGCACUUCCAGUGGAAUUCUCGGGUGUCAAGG	-0.166
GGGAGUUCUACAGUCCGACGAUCUUUAGUGACUUUGGAUGAAGUAACUGAAGAGGAUGAAGACUCUCUGGCGGAUUUUAACAACCUUAAAGAAGAGCUUAAUUUUGUUACUGUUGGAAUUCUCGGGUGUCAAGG	-1.62
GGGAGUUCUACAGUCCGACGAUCCCUCAAGUCCUGUGCUACACAUCGUAUGUACCGAAUCGGAAAGGUUUGGAGGAAAGUAUUAUGUUACGCCGUUCGGAUCUGCACUUCCAGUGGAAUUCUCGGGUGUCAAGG	0.0798
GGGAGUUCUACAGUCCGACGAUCUAACUUUAGAGGAGGAUCUGAUGGAUAUGGCAGUGGACGUGGAUUUGGGGAUGGCUAUAAUGGGUAUGGAGGAGGACCAGGAGGUGGCAAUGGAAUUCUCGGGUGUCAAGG	0.172
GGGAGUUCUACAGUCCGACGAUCGCAGGAAGUAAAAACAAAUGGUAAUGCUUCGGAUAGUGGCAGGGGUGGGGGUUGCUAAGGAAAGGGUGGGAUGGGAGUGGGUAAAGAGUUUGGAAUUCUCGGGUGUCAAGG	0.192
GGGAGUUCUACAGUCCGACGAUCGUCCUGUGCUACACAUCGUAUGUACCGAAUCGGGGUUUUUUUGGGGAAAGGGGAGGGGAAAGUAUUAUGUUACGCCGUUCGGAUCUGCACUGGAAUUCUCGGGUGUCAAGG	0.594

Block 3 — method: protein binding microarray; form: double-stranded DNA, one strand shown; sample: in vitro; tested at: not given; relative to: not given; direction: higher = stronger binding
Target: Histone acetyltransferase KAT6A, both winged helices, GST fusion (KAT6A, Homo sapiens, UniProt Q92794, residues 1-181)
Notes: 8-mer, flanks averaged, mean of 2 arrays, mostly near background
Residues (chain): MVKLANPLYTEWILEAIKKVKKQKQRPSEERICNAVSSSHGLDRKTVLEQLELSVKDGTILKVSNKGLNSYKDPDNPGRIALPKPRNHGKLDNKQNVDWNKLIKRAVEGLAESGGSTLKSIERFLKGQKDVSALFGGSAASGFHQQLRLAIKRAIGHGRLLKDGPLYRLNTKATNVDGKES
Strand	E-score
ACAGTAAC	-0.0807
TACTCCGA	-0.00886
CTGCCTCC	-0.0693
GGCGGTTA	0.143
CGATGCGC	0.287
AACAAGCA	-0.0839
CGCAACAA	0.0456
AAAGGTGT	-0.0851
CGGCACAA	0.215
TAGTGAGA	-0.12
CGAAATGA	0.04
AGGACTAG	-0.111
CTTGTTTA	-0.0236
AGTCCATG	-0.0903
AGTTATCA	-0.111
AGCCCACC	-0.025
GAGGAGCC	-0.0733
AACGCGTA	0.26
AATTTCTG	-0.137

Block 4 — target: CCNB3, cyclin fold, Cln2 fusion (human); method: yeast growth competition, sequencing; sample: yeast; notes: strong parent motif; relative to: not given; direction: higher = stronger binding
Starting sequence: BRCA2 docking peptide (human); PSIKRNLLNEFDR
Variant	normalised enrichment score
PSIKRHLLNEFDR [N6H]	0.287
PSIKRELLNEFDR [N6E]	0.24
PSIKRNLANEFDR [L8A]	0.434
PSIKRPLLNEFDR [N6P]	1.11
ASIKRNLLNEFDR [P1A]	1.14
PSIKRNLCNEFDR [L8C]	0.282
PSIKTNLLNEFDR [R5T]	-0.649
PSIKRNLLKEFDR [N9K]	1.36
PSIKRNLLNEMDR [F11M]	0.125
MSIKRNLLNEFDR [P1M]	1.15
PSIKRLLLNEFDR [N6L]	-0.224
PHIKRNLLNEFDR [S2H]	0.875
PSIKRNVLNEFDR [L7V]	-0.0864
PSIARNLLNEFDR [K4A]	0.78
PSIMRNLLNEFDR [K4M]	0.751
PSIKRNLLNVFDR [E10V]	0.274
PSIFRNLLNEFDR [K4F]	0.223
PSIKRNLLNEEDR [F11E]	0.343
PSIKRNLLNETDR [F11T]	0.227
PSIKRNLLNEFDH [R13H]	0.755
PSIKRNALNEFDR [L7A]	-0.128
PSIKRNRLNEFDR [L7R]	0.116
PSIKRNLLCEFDR [N9C]	0.722
PSIKRNLLNEFMR [D12M]	1.12
ESIKRNLLNEFDR [P1E]	1.33

Block 5 — method: RNA Bind-n-Seq; form: RNA; sample: in vitro; tested at: 365 nM; relative to: no-protein control; direction: higher = stronger binding
Target: RNA binding protein fox-1 homolog 2, RRM domain, GST-SBP tag (RBFOX2, Homo sapiens, UniProt O43251-10, residues 100-194)
Notes: natural RNA segment, single round, ends assumed
Residues (chain): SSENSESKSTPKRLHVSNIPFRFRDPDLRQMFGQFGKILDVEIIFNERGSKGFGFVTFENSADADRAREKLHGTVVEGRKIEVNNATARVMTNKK
Strand	RBNS enrichment (R)
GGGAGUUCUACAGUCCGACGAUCUAUGCAUGCAGGUAACAAGAGUGAAAGCAGAGCUGACAUUUGCCAGGCUUUCCUGGAGCAGGCCAGUGAGUGUAGACGUGUGUAAAGAUGUCGCCAGUUCUCACUGUCUGUGGAAUUCUCGGGUGCCAA	21.1
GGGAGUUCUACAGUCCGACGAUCCCUGCCCGUGGGCUUGGGGAUGGGAGGCCCCUCAGGUCCUGGAGGUGGGGCGGGAACACACAAAUCCAGCCCCCUUUCUCCUGGCUCCCUGCUCUGGCCCUGCCCCAGAGUGGAAUUCUCGGGUGCCAA	0.546
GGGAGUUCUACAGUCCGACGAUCUGGGAAAACUGUGUGUUAUAUUCUGUUGCAGGUAGUCUGGCUGUAUUUGGAAAGUUGCAAAGAAGGUAGAUUUGGGGGCAGGAAAAACAACCCUUUUCACAGUGUACUGUUGGAAUUCUCGGGUGCCAA	0.649
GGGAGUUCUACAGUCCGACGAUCAUAGGCAACUUGGUACUAUCUUAUUCUGAGUAGAGAGUGGAGAAAGUAUUUUCAGACUGAAGAAAACUUUGAAAAGUCAGGAGCUAAGCUGCUCGGAGCUCAGUGCCGCAUGGAAUUCUCGGGUGCCAA	1.56
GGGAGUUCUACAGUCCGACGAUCUGUUUUUAAUGUGCAGGUAUUGAAUUAUAUGGUCUGACUUAAAUCAUAACUAGACUUGAGUGGGCUGAAUAAACCACUUCACUAACUUGAAGUUCAAAAGGAUGGAAAAUUGGAAUUCUCGGGUGCCAA	0.331
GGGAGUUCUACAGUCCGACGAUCUGUGAAGGGAUUGCACCAAGCCACAUUCACUCUCUCUGUGGCCUUUCUUCCUCUGGGCAAAGAAGGGCUUCCAGUGGCCUUUCCUCACUCUGUAGUGUUUGUGGGGAUAGUGGAAUUCUCGGGUGCCAA	0.506
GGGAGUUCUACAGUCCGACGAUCAUUGAUAGAGCUCUUUUAUAACUAAAGCAUUUAAUUUUUUGUACUAGAAAAACUUUUGAAUAUUUUAGUUCAUUGUUCAGAUAUGUUAACUCAAGAUUAGUUUAAUUAAAUGGAAUUCUCGGGUGCCAA	1.63
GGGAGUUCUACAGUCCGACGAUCGGCGGGGCGAUCGGGUCUCAGCCCCUGCCUUCCCCAGUCUCUGGGUCACCCGAAUUUUCCCACCCCUGCUUCUCCCCGAGGAGGUUGAGCUCUUGAGCAAGUUGGGACUUUGGAAUUCUCGGGUGCCAA	0.4
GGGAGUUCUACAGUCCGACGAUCCCCUCUCCUAGCACUGUACCUUUACCCAGCGAGUCCCCACACUGUGGUCUUCUUGCACAGUGUGUGGCAGUUGAGAAAGCCUAGAAAAGGUGCCCAUUUGACCACUGUGAUGGAAUUCUCGGGUGCCAA	0.37
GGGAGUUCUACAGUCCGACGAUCUCUACUUUCAAAAAUGAAACAAAAAGGAAAAAUGGCAAAGUACUGUUUUAGCUGUGCAUGUCAUAUCCACAAAGACUUUUAGCAGGUGAACUGUUCCAAGACUGACACAAUGGAAUUCUCGGGUGCCAA	0.263
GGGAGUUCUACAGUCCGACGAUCAUAACAGGACCUUUAGUAAGCAUACUUUAAUCAGUUUUUCUCCUUGAAUUAAUCUUUUCUCUUAAUUUUUAUUAUGUACUAGUUGUAUUAAAGCUAAUGUGUUUACUUUUUGGAAUUCUCGGGUGCCAA	0.697
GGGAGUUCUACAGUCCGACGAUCGCUGUGGGUUUGUCAUAGAUAGCUCUUAUUAUUUUGAAAUACACCCCAUCAAUCCCUAAUUUAUUGAGAGUUUUUAGCAUGAAGGGUUGUUGAAUUUUGUCAAAGGCUUUUGGAAUUCUCGGGUGCCAA	7.81

Block 6 — method: universal PBM; form: double-stranded DNA, one strand shown; sample: in vitro; tested at: 600 nM; direction: higher = stronger binding
Target: Sal-like protein 4, full length isoform A (SALL4, Homo sapiens, UniProt Q9UJQ4, residues 1-1053)
Sequence of UniProt Q9UJQ4 (whole entry, looked up): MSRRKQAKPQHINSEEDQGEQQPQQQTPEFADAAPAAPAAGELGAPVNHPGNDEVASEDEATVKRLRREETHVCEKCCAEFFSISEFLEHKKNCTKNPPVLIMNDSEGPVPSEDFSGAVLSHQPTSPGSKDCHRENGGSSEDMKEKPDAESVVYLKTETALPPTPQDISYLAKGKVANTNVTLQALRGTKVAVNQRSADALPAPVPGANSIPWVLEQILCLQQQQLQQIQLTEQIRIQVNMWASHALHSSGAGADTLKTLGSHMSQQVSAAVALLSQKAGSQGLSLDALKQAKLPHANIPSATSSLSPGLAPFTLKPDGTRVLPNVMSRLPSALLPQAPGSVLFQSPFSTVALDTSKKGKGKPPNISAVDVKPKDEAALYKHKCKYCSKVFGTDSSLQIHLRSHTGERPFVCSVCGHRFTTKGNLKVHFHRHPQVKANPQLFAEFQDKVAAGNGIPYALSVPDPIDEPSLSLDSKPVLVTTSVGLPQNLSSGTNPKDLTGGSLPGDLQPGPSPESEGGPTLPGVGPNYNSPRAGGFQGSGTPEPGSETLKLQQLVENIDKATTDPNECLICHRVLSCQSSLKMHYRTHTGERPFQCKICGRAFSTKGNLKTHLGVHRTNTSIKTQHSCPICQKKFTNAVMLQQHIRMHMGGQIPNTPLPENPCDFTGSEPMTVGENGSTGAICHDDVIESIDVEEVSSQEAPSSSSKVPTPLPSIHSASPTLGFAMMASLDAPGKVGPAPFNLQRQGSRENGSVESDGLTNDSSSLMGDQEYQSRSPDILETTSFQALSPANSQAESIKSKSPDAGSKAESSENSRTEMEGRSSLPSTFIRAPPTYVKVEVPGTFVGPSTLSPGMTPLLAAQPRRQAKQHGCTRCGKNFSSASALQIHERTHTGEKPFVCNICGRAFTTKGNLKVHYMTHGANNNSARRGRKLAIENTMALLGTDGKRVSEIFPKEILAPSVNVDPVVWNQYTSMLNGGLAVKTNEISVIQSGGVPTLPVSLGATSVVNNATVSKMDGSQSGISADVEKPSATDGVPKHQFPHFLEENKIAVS
Notes: 8-mer, flanks averaged, mean of replicates
Strand	E-score
GAATCACA	-0.00897
AGTCAGGC	0.00092
CAAGGTCC	-0.172
CACCCGCG	-0.244
ATAATGAA	0.393
GACAATAA	0.27
AATAGTTC	0.291
AAAGGGGT	-0.054
AGGGTTAG	-0.214
ACGAGTCG	-0.221
TGAACCCA	-0.0686
GGACCCCC	-0.442
AGTCGCCG	-0.286
CCAGAAGC	-0.162
CTGAGGTA	0.0374
GACTACTC	-0.139
ACAACGTG	-0.0797
CGCCGCCA	-0.373
GGGTAGTA	-0.0885
ATGGACGC	-0.202
GATAGGGC	-0.215
GGCGCAAA	-0.157
ACCCCCTC	-0.275

For quick reference, copied from above (block 1):
target	fold induction
PhoP, residues 12 14 15 18 19 NYFRM (Escherichia coli, UniProt P23836)	2.16
PhoP, residues 12 14 15 18 19 QYFSL (Escherichia coli, UniProt P23836)	2.01
PhoP, residues 12 14 15 18 19 TQALL (Escherichia coli, UniProt P23836)	1.47
